# Published values pooled from the literature.
# Each line is one published result; not all experiments were run side by side. ± marks the error that the study gave.
# UniProt P81908, sequence (whole entry, looked up): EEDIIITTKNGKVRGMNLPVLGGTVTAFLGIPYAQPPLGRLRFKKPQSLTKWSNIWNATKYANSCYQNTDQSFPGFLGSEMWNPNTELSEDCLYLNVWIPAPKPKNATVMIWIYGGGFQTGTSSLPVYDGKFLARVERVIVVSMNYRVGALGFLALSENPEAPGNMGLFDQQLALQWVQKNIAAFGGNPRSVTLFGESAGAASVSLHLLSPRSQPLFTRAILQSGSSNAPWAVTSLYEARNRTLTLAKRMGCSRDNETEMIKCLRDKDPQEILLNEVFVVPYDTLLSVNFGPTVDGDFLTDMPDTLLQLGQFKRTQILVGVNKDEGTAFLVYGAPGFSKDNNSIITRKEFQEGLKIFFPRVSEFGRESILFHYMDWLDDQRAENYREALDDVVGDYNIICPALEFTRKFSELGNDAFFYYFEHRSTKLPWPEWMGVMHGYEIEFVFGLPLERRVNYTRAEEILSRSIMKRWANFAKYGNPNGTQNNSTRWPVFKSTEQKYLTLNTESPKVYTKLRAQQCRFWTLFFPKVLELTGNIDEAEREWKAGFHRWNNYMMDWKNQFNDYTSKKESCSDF
# UniProt Q12809, sequence (whole entry, looked up): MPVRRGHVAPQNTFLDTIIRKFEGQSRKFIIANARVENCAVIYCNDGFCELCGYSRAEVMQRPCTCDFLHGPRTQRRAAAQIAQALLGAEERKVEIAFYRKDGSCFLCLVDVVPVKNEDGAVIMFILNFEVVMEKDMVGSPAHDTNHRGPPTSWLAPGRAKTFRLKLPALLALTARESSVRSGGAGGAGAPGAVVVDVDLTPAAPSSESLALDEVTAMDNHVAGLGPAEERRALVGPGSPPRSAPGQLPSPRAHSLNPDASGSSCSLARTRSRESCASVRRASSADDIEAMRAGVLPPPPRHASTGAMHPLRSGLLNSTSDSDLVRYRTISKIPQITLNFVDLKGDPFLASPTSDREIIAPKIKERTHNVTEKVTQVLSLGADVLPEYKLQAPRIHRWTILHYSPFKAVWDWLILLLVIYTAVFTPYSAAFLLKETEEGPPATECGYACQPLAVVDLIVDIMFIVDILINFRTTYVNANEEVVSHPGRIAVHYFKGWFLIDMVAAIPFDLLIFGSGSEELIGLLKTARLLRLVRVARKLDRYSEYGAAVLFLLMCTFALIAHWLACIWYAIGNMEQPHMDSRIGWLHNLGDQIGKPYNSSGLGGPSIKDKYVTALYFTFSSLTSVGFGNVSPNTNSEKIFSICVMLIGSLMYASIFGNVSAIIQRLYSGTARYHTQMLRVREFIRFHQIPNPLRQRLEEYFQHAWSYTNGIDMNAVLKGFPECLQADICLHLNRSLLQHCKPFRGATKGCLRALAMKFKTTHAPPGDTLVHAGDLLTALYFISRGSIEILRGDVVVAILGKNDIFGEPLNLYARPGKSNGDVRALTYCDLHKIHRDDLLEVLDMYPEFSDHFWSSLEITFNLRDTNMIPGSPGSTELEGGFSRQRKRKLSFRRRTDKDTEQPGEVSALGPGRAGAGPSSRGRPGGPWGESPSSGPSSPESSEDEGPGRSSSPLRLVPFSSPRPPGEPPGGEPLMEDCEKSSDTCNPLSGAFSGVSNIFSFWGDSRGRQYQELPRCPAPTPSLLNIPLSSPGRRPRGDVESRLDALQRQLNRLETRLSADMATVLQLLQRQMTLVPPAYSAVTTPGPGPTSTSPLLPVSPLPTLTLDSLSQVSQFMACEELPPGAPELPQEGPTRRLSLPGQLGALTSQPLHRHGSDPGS
# UniProt Q388M1, sequence (whole entry, looked up): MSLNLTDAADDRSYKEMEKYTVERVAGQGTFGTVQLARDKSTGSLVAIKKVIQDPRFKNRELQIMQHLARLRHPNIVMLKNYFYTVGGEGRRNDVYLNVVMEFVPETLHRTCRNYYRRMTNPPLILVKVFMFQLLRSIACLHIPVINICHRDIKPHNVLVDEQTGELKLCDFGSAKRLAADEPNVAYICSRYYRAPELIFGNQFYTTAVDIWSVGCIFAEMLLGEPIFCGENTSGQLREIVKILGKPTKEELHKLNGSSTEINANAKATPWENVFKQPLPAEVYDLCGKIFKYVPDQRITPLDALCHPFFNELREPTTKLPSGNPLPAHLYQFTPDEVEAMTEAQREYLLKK
# UniProt Q5S007, sequence (whole entry, looked up): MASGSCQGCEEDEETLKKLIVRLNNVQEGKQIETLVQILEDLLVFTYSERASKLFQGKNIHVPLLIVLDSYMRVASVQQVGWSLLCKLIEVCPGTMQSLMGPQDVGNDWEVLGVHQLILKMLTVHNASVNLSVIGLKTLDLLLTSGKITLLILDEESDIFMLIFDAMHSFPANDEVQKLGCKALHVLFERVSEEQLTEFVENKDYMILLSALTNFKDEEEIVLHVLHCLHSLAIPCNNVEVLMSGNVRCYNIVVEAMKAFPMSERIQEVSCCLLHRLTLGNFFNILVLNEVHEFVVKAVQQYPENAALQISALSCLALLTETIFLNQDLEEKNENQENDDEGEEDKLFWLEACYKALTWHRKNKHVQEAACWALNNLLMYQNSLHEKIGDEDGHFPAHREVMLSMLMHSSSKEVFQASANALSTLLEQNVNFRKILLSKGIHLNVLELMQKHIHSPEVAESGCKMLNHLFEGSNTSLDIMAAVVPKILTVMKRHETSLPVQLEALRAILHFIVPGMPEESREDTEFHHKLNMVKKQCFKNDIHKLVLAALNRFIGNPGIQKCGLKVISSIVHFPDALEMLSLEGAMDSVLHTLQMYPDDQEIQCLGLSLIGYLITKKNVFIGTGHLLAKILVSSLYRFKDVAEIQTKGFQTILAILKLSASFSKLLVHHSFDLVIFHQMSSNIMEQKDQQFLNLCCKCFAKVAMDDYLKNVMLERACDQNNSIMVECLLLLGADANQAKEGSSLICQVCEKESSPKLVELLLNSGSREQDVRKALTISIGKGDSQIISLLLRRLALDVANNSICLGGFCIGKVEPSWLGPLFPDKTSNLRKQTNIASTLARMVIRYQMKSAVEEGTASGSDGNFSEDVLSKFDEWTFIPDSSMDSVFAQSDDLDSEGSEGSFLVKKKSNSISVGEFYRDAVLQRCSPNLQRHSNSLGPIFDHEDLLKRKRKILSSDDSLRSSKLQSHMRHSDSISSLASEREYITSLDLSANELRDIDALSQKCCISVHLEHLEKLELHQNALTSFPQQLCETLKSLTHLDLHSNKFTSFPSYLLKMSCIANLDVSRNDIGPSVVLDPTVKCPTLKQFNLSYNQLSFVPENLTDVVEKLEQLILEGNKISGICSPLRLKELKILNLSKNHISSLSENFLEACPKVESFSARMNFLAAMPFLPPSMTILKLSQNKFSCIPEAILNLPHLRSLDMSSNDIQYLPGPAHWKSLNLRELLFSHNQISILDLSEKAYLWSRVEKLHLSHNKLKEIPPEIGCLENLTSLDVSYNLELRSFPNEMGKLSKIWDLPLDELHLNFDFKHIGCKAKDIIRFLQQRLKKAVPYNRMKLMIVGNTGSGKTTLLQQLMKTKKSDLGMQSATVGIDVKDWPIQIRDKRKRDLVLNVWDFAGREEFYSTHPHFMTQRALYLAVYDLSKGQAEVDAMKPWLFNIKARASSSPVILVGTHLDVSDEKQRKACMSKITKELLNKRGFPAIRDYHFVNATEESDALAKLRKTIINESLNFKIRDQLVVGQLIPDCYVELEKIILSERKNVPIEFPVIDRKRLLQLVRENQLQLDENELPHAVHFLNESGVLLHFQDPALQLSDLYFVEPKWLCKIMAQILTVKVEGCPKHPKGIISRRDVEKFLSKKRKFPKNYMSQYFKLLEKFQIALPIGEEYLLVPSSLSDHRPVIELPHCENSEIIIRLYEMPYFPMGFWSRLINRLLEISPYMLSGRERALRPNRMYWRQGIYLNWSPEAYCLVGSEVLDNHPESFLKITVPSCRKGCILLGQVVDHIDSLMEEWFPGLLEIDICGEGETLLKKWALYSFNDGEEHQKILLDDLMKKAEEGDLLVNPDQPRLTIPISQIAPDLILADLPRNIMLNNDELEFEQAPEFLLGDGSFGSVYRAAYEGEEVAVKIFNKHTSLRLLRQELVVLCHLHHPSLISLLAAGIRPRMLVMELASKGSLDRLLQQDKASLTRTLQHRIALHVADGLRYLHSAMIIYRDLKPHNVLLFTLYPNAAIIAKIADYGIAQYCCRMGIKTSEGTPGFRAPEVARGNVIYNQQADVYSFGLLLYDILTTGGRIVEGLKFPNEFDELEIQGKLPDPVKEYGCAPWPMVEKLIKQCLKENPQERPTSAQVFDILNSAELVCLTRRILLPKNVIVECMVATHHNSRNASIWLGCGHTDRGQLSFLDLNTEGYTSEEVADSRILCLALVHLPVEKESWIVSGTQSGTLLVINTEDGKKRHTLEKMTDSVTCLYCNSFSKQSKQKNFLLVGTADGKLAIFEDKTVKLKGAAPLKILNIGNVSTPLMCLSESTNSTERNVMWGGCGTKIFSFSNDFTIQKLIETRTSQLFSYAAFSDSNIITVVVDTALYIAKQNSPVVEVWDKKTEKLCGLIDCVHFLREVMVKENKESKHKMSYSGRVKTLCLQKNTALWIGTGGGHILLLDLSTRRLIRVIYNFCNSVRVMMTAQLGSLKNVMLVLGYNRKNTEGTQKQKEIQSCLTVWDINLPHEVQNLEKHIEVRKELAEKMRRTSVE
# UniProt Q9BV23, sequence (whole entry, looked up): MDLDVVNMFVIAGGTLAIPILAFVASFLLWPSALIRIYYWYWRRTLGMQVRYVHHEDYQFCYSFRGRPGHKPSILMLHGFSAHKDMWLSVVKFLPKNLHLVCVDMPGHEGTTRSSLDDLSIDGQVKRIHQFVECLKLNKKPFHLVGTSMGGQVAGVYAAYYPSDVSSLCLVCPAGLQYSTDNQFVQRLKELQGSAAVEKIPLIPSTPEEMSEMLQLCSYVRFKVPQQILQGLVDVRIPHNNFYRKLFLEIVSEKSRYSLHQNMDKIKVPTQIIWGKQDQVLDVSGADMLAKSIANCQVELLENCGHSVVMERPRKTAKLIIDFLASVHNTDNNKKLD
Compound,target or system,assay,test system,conditions,measurement,result
CC(C)NP(=O)(NC(C)C)OP(=O)(NC(C)C)NC(C)C,"Butyrylcholinesterase (Bche, Rattus norvegicus, UniProt Q9JKC1)","enzyme activity, inhibitor, radiometric","rat, adult, cortex homogenate","15 min, 37 °C",IC50,4 µM
CC1=C(C(=O)NC(=O)c2cnccn2)C(c2ccncc2)NC(=O)N1 (centres unmarked),"Cholinesterase (BCHE, Equus caballus, UniProt P81908)",,,,IC50,3.92 ± 0.01 µM
N.N.[Cl][Pt][Cl],"Carbamate kinase (Giardia intestinalis, UniProt A8BB85)","enzyme activity, ATP luminescence",,,IC50,5.17 µM
Cn1cc(C2=C(c3cn(CCCN)c4ccccc34)C(=O)NC2=O)c2ccccc21,"GSK3, short isoform (Trypanosoma brucei, UniProt Q388M1)","enzyme activity, inhibitor",,"90 min, 30 °C, added: ATP 2 µM",IC50,1.34 µM
N#CC[C@H](C1CCCC1)n1cc(-c2ncnc3[nH]ccc23)cn1,"Solute carrier organic anion transporter family member 1B1 (SLCO1B1, Homo sapiens, UniProt Q9Y6L6)","transport, inhibitor",,"10 (unit not given), pre-incubation, added: estrone-3-sulfate",IC50,47.9 ± 3.6 µM
O=Cc1ccc2cccc(O)c2n1,"Cholinesterase (BCHE, Homo sapiens, UniProt P06276)","enzyme activity, inhibitor, Ellman",,,IC50,5.26 µM
COC(=O)[C@@]1(O)C[C@H]2O[C@]1(C)n1c3ccccc3c3c4c(c5c6ccccc6n2c5c31)C(=O)NC4,"Leucine-rich repeat serine/threonine-protein kinase 2 (LRRK2, Homo sapiens, UniProt Q5S007)","LRRKtide phosphorylation, inhibitor",,"25 °C, added: 1 µM ATP",IC50,~0.025 µM
CC1(C)C2C(=O)N(OC(=O)N3CCc4c(Br)cccc4C3)C(=O)C21 (centres unmarked),"Monoacylglycerol lipase ABHD6 (ABHD6, Homo sapiens, UniProt Q9BV23)","enzyme activity, inhibitor, fluorescence",,,IC50,0.022 µM
Cc1cc2ccccc2c2ccc3ccccc3c12,"Cytochrome P450 1B1 (CYP1B1, Homo sapiens, UniProt Q16678)","enzyme activity, inhibitor",,"5 s, pH 7.4",IC50,< 0.05 µM
CN[C@H](CC(C)C)C(=O)N[C@H]1C(=O)N[C@@H](CC(N)=O)C(=O)N[C@H]2C(=O)N[C@H]3C(=O)N[C@H](C(=O)N[C@H](C(=O)O)c4cc(O)cc(O)c4-c4cc3ccc4O)[C@H](O)c3ccc(c(Cl)c3)Oc3cc2cc(c3O[C@@H]2O[C@H](CO)[C@@H](O)[C@H](O)[C@H]2O[C@H]2C[C@](C)(N)[C@H](O)[C@H](C)O2)Oc2ccc(cc2Cl)[C@H]1O,"Transglycosylase (Staphylococcus aureus, UniProt Q9R744)","transglycosylation, inhibitor, TLC radioactivity",RN4220,"1 h, pH 7.0, 30 °C, 10 % DMSO, added: 4 µM [14C]-C35-depsi-lipid II (D-Ala-D-Lac)",IC50,> 64 µM
O=C(O)c1cc2ccccc2c(Cc2c(O)c(C(=O)O)cc3ccccc23)c1O,"CRISPR-associated endonuclease Cas9/Csn1 (cas9, Streptococcus pyogenes serotype M1, UniProt Q99ZW2)","ssDNA target strand cleavage, inhibitor",,"added: FAM ssDNA 87 nt, no PAM",IC50,> 200 µM
CC12CC3CC1(C)C1(C)CC3(N)CC21C,NMDA receptor (rat),"intracellular Ca2+ increase, inhibitor",rat cerebellar granule neurons,added: 100 µM NMDA plus 10 µM glycine,IC50,4.1 ± 1.7 µM
CN[C@@](C)(C[18F])C(=O)O,,,"SCID mouse A549 xenograft, liver","120 min, post injection",tissue uptake,4.9 ± 0.7 %ID/g
Clc1ccc(C(c2ccccc2Cl)C(Cl)(Cl)Cl)cc1 (centres unmarked),"Voltage-gated inwardly rectifying potassium channel KCNH2 (KCNH2, Homo sapiens, UniProt Q12809)","thallium influx, inhibitor, confirmation",hERG-transduced cells,,IC50,22.2 ± 4.1 µM
Cc1nc2ccccc2c2cc[nH]c12,human PDE4 from U-937 cells,"enzyme activity, inhibitor",,"20 min, pH 7.5, 25 °C, added: [3H]cAMP 1.10 µM",IC50,> 100 µM
O=C(O)c1cc[c]([Hg][Cl])cc1,"Trypanothione synthetase (Trypanosoma brucei brucei, UniProt Q586P2)","enzyme activity, BIOMOL Green phosphate release",,1 h preincubation,IC50,2.2 ± 0.05 µM
Cc1cncc(OC(=O)NCCCCCn2ccc3ccc(F)cc32)c1,"Cholinesterase (BCHE, Equus caballus, UniProt P81908)","enzyme activity, inhibitor, HPLC",,,IC50,0.24 µM
